Assay results of several laboratories.
Protocols differ between the studies behind these lines. “And” joins repeats or separate records; there may be more than shown. ± gives the spread as reported.

COc1ccc(CCNC2CCCc3c2[nH]c2ccc(C)cc32)cc1 (centres unmarked)  non-viable cells (A549; 50 µM, 23 h): 2.2 ± 2.5%
CC(C)C[C@@H]1NC(=O)C(C)(C)NC(=O)[C@@H]2CCCN2C(=O)[C@H](C(C)C)NC(=O)[C@H](Cc2ccccc2)NC(=O)CSCCNC(=O)[C@H](Cc2ccccc2)N(C)C(=O)[C@H](CC(C)C)NC(=O)[C@H](Cc2cccc3ccccc23)NC1=O  Papp A→B (LLC-PK1; Caco-2): 0.01 ×10⁻⁶ cm/s
C[C@@H]1O[C@@H](O[C@@H]2[C@@H](O)[C@H](O)[C@@H](CO)O[C@H]2c2c(O)cc(O)c3c(=O)cc(-c4ccc(O)cc4)oc23)[C@H](O)[C@H](O)[C@H]1O  viability (Caco-2; CCK-8; 5 µM, 24 h): 106%
CNC(=O)C[C@H](Cc1ccccc1)NC(=O)[C@@H](Cc1ccc(Cl)cc1Cl)NC(=O)[C@H](N)Cc1ccccc1C#N  viability (Huh-7-ACE2; CellTiter-Glo; 0.195 µM, 48 h, unit not given; baseline: DMSO): 1 and 1.06 and 1.07
N=C(N)NCCC[C@H](NC(=O)[C@H](CCCNC(=N)N)NC(=O)[C@H](CCCNC(=N)N)NC(=O)[C@H](CCC(N)=O)NC(=O)[C@H](CCCNC(=N)N)NC(=O)[C@H](CCCNC(=N)N)NC(=O)[C@H](CCCCN)NC(=O)[C@H](CCCCN)NC(=O)[C@H](CCCNC(=N)N)NC(=O)CNC(=O)[C@H](Cc1ccc(O)cc1)NC(=O)[C@H](Cc1ccccc1)NC(=O)[C@H](Cc1ccccc1)NC(=O)[C@H](Cc1ccccc1)NC(=O)OCC1c2ccccc2-c2ccccc21)C(=O)O  cellular internalization (RAW264.7; flow cytometry; FITC-labelled compound, together with: amiloride 3 mM, 1 h pretreatment; baseline: control): decreased
CCCO[C@H]1[C@H](O)[C@@H](N)[C@@H](O[C@H]2[C@H](O[C@@H]3O[C@H](CO)[C@@H](O[C@H]4O[C@@H](CN)[C@@H](O)[C@H](O)[C@H]4N)[C@H]3O)[C@@H](O)[C@H](N)C[C@@H]2N)O[C@@H]1CO  25% lethal concentration (NIH 3T3; 72 h, 10% fetal bovine serum): > 1200 µM
CNC(=O)C[C@H](Cc1ccncc1)NC(=O)[C@@H](Cc1cccc(Br)c1)NC(=O)[C@@H](N)Cc1cccc(F)c1  viability (Huh-7-ACE2; CellTiter-Glo; 1.562 µM, 48 h, unit not given; baseline: DMSO): 1 and 0.987 and 0.948
C#Cc1ccc(C[C@@H]2NC(=O)CSCCNC(=O)[C@H](Cc3ccccc3)N(C)C(=O)[C@H](CC(C)C)NC(=O)[C@H](Cc3cccc4ccccc34)NC(=O)[C@H](CC(C)C)NC(=O)[C@H](C(C)C)NC(=O)[C@@H]3CCCN3C(=O)[C@H](C(C)C)NC2=O)cc1  Papp A→B (LLC-PK1; Caco-2): 0.02 ×10⁻⁶ cm/s
Cc1ccc2[nH]c3c(c2c1)CCCC3NCCC12CC3CC(CC(C3)C1)C2 (centres unmarked)  non-viable cells (A549; 50 µM, 23 h): 78.2 ± 20.4%
CN1CCN(S(=O)(=O)c2ccc(-c3ccc4ncnc(Nc5ccc(Cl)cc5)c4c3)cc2)CC1  TC50 (NIH 3T3; PrestoBlue; 96 h): 29 µM
Cc1cc(-c2ccc3ccccc3c2)nnc1NCCN1CCN(C)CC1  P-gp substrate classification (Caco-2; bidirectional permeability; together with: 1.0 µM valspodar): negative
Nc1nc2ccc(Oc3ccc4nc(N)sc4c3)cc2s1  cytotoxicity (A549; XTT; 250 µM, 20 h, 10% FBS): 30%
Cc1ccc2[nH]c3c(c2c1)CCCC3NCCCc1ccccc1 (centres unmarked)  non-viable cells (A549; 50 µM, 23 h): 4.8 ± 4.2%
CC(=O)NCC(=O)N[C@@H](Cc1ccccc1)C(=O)N[C@@H](Cc1ccccc1)C(=O)N[C@@H](Cc1ccc(O)cc1)C(=O)NCC(=O)N[C@@H](Cc1ccc(O)cc1)C(=O)NCC(=O)N[C@@H](CO)C(=O)N[C@@H](CO)C(=O)N[C@@H](CO)C(=O)N[C@@H](CCCNC(=N)N)C(=O)N[C@@H](CCCNC(=N)N)C(=O)N[C@@H](C)C(=O)N1CCC[C@H]1C(=O)N[C@@H](CCC(N)=O)C(=O)N[C@H](C(=O)O)[C@@H](C)O  cytotoxicity (mouse dermal papilla cells; CCK-8; 1 to 400 µM, 48 h): not toxic
CC(=O)NCC(=O)N[C@@H](CCCNC(=N)N)C(=O)N[C@@H](CCCCN)C(=O)N[C@@H](CCCCN)C(=O)N[C@@H](CCCNC(=N)N)C(=O)N[C@@H](CCCNC(=N)N)C(=O)N[C@@H](CCC(N)=O)C(=O)N[C@@H](CCCNC(=N)N)C(=O)N[C@@H](CCCNC(=N)N)C(=O)N[C@@H](CCCNC(=N)N)C(=O)N1CCC[C@H]1C(=O)N[C@@H](CCC(N)=O)C(N)=O  peptide concentration (HEK293T cells; LC-MS; cytoplasmic fraction; 20 µM, 2 h): 313 pmol/mg protein and 339 pmol/mg protein and 423 pmol/mg protein
CC(C)C[C@@H]1NC(=O)[C@H](Cc2ccccc2)N(C)C(=O)[C@H]2CCCN2C(=O)CNC(=O)[C@H](CC(C)C)N(C)C(=O)[C@H](CC(C)C)NC(=O)[C@H](Cc2ccccc2)N(C)C(=O)[C@H]2CCCN2C(=O)[C@H](CC(C)C)NC(=O)[C@H](C)N(C)C1=O  Papp A→B (LLC-PK1; Caco-2): 3.92 ×10⁻⁶ cm/s
CNC(=O)C[C@H](Cc1ccc(F)cc1)NC(=O)[C@@H](Cc1ccc(Cl)cc1Cl)NC(=O)[C@H](N)Cc1ccccc1C#N  viability (Huh-7-ACE2; CellTiter-Glo; 3.125 µM, 48 h, unit not given; baseline: DMSO): 0.905 and 0.899 and 0.928
CC[C@H](C)[C@@H]1NC(=O)[C@H](C(C)C)NC(=O)[C@H](C(C)C)NC(=O)[C@H](CC(C)C)NC(=O)C[C@@H](C(=O)N[C@@H](Cc2c[nH]c3ccccc23)C(=O)N[C@@H](CC(N)=O)C(=O)N[C@@H](C)C(=O)N2CCC[C@H]2C(=O)NCC(=O)N[C@@H](Cc2c[nH]c3ccccc23)C(=O)N[C@@H](Cc2ccccc2)C(=O)O)NC(=O)[C@H](C)NC(=O)[C@H](CCC(N)=O)NC(=O)[C@H](C(C)C)NC1=O  cytotoxicity (A549; 10 µM): not toxic
CNC(=O)CC[C@H](Cc1ccccc1)NC(=O)[C@@H](Cc1ccc(Cl)cc1Cl)NC(=O)[C@H](N)Cc1ccccc1[N+](=O)[O-]  viability (Huh-7-ACE2; CellTiter-Glo; 0.0244 µM, 48 h, unit not given; baseline: DMSO): 0.976 and 0.967 and 1.04
Fc1cccc(COc2ccc(Nc3ncnc4ccc(-c5cccc(CN6CCCCC6)c5)cc34)cc2Cl)c1  TC50 (NIH 3T3; PrestoBlue; 96 h): 4.4 µM
CN(C)CCCNC(=O)[C@@H]1NC(=O)[C@@H]2Cc3ccc(cc3)Oc3cc4cc(c3O)-c3ccc5c(c[nH]c5c3)C[C@@H](NC(=O)C(NC(=O)CCCCCN)c3ccc(O)cc3)C(=O)N[C@H](c3ccc(O)cc3)C(=O)N[C@H]4C(=O)N[C@@H](C(=O)N2C)c2ccc(cc2)Oc2cc1ccc2O (some centres unmarked)  hemolysis (human red blood cells; 0.5 µg/mL, 1 h, 37 °C, 1% DMSO): 0%
CCOc1ccc(CN2CC[C@H]2C(=O)NC)cc1-c1cccc(C(=O)NC[C@@H]2COC(C)(C)O2)c1  viability (Huh-7-ACE2; CellTiter-Glo; 0.000381 µM, 48 h, unit not given; baseline: DMSO): 1.03 and 0.961 and 0.998
Fc1cccc(COc2ccc(Nc3ncnc4ccc(-c5cccc(N6CCNCC6)c5)cc34)cc2Cl)c1  TC50 (NIH 3T3; PrestoBlue; 96 h): 19 µM
CC(C)C[C@@H]1NC(=O)[C@H](CCC2CCCCC2)NC(=O)[C@H](CC(C)C)NC(=O)[C@H](C(C)C)NC(=O)[C@]2(C)CCCN2C(=O)[C@H](C(C)C)NC(=O)[C@H](Cc2ccccc2)NC(=O)CSCCNC(=O)[C@H](C(C)(C)O)NC1=O  Papp A→B (LLC-PK1; Caco-2): 0.19 ×10⁻⁶ cm/s
CNC(=O)CC1CN(C(=O)c2ccc(C(F)(F)F)cn2)CCN1C(=O)c1cccnn1 (centres unmarked)  viability (Huh-7-ACE2; CellTiter-Glo; 0.000381 µM, 48 h, unit not given; baseline: DMSO): 1.12 and 0.994 and 0.969
C/C=C(/C)C(=O)OC[C@H]1[C@@H](Cc2ccc(OC)c(OC)c2)CO[C@@H]1c1ccc(OC)c(OC)c1  LDH release (rat aortic VSMCs; 30 µM, 24.5 h): 3.1 ± 0.7%

Some of these lines once more:
CC(=O)NCC(=O)N[C@@H](Cc1ccccc1)C(=O)N[C@@H](Cc1ccccc1)C(=O)N[C@@H](Cc1ccc(O)cc1)C(=O)NCC(=O)N[C@@H](Cc1ccc(O)cc1)C(=O)NCC(=O)N[C@@H](CO)C(=O)N[C@@H](CO)C(=O)N[C@@H](CO)C(=O)N[C@@H](CCCNC(=N)N)C(=O)N[C@@H](CCCNC(=N)N)C(=O)N[C@@H](C)C(=O)N1CCC[C@H]1C(=O)N[C@@H](CCC(N)=O)C(=O)N[C@H](C(=O)O)[C@@H](C)O  cytotoxicity (mouse dermal papilla cells; CCK-8; 1 to 400 µM, 48 h): not toxic
CC(=O)NCC(=O)N[C@@H](CCCNC(=N)N)C(=O)N[C@@H](CCCCN)C(=O)N[C@@H](CCCCN)C(=O)N[C@@H](CCCNC(=N)N)C(=O)N[C@@H](CCCNC(=N)N)C(=O)N[C@@H](CCC(N)=O)C(=O)N[C@@H](CCCNC(=N)N)C(=O)N[C@@H](CCCNC(=N)N)C(=O)N[C@@H](CCCNC(=N)N)C(=O)N1CCC[C@H]1C(=O)N[C@@H](CCC(N)=O)C(N)=O  peptide concentration (HEK293T cells; LC-MS; cytoplasmic fraction; 20 µM, 2 h): 313 pmol/mg protein and 339 pmol/mg protein and 423 pmol/mg protein
CC(C)C[C@@H]1NC(=O)[C@H](Cc2ccccc2)N(C)C(=O)[C@H]2CCCN2C(=O)CNC(=O)[C@H](CC(C)C)N(C)C(=O)[C@H](CC(C)C)NC(=O)[C@H](Cc2ccccc2)N(C)C(=O)[C@H]2CCCN2C(=O)[C@H](CC(C)C)NC(=O)[C@H](C)N(C)C1=O  Papp A→B (LLC-PK1; Caco-2): 3.92 ×10⁻⁶ cm/s
